Experimental data from different studies.
Protocols differ between the studies behind these lines.

With `COc1ccnc(-c2cc(OC)ccn2)c1.Cc1ccc2c(Cl)cc(Cl)c([O-])c2n1.Cc1ccc2c(Cl)cc(Cl)c([O-])c2n1.[Co+2]` the IC50 was 5340 nM (BEL-7404; cell growth or viability, MTT; 48 h).
With `CCOc1cncc(-c2ccc(NC(=O)C3(c4ccnc(NS(=O)(=O)C5CC5)n4)CCOCC3)nc2)n1` the IC50 was 93 nM (OVCAR-8; cell proliferation, CellTiter-Glo; 72 h).
With `C=CC(=O)N1CCCC(n2c(=O)c3ncccc3n(Cc3ccc(Oc4ccccc4)cc3)c2=O)C1` (stereo not shown) the IC50 was 12000 nM (VAL; cell proliferation, MTT; 72 h).
`CCN(C(=O)c1cc(F)ccc1Oc1nncnc1N1CCC2(C1)CN(C(CCCN(C)CCOC)C(C)C)C2)C(C)C` (stereo not shown) gave an IC50 of > 2820 nM (OCI-AML-3 (NPM1c); mRNA level, QuantiGene multiplex, measured: PBX3; concentration not given).
`O=C(NC1CCOCC1)c1ccc(C2CCCCC2)cc1` has a hepatic clearance of 3.9 mL/min/kg (liver microsome stability; human liver microsomes; 1 µM, without NADPH).
`CNS(=O)(=O)Nc1nccc(Cc2c(C)c3ccc(Oc4ncccc4F)cc3oc2=O)c1F` gave an IC50 of > 1000 nM (PA-1; cell viability; 7 days).
The IC50 of `CN1CCC(N[C@@H]2CCc3[nH]c4c(C(N)=O)ccc(-c5ccccc5Cl)c4c3C2)CC1` is reported as 24.1 nM (K562 parental; cell proliferation).
`CC(C)c1ccc(N(C)c2ccc3c(c2)OCC[C@H]3CNc2cnccc2C(=O)O)cc1` gave an IC50 of 1.75 nM (NCI-H1694; cell growth or viability, ATP luminescence; 7 days).
`O=C(CC(F)(F)F)Nc1ccc([C@H]2[C@@H](F)[C@@H](F)C[C@@H](F)[C@H]2F)cc1` gave a hepatic clearance of 6 mL/min/kg (liver microsome stability; human liver microsomes; 1 µM, without NADPH).
With `NC(=O)c1ccc(-c2ccccc2Cl)c2c3c([nH]c12)CC[C@H](N)C3` the IC50 was 20.9 nM (K562 parental; cell proliferation).

Excerpt of the above:
`O=C(NC1CCOCC1)c1ccc(C2CCCCC2)cc1` has a hepatic clearance of 3.9 mL/min/kg (liver microsome stability; human liver microsomes; 1 µM, without NADPH).
